Measured values collected from several papers.
Parts stem from different laboratories: compare values within a part only. Substitutions count along the parent as printed.

Study 1
Target: Eukaryotic initiation factor 4A-I (EIF4A1, Homo sapiens, UniProt P60842, residues 1-406, full length assumed)
UniProt P60842, sequence (whole entry, looked up): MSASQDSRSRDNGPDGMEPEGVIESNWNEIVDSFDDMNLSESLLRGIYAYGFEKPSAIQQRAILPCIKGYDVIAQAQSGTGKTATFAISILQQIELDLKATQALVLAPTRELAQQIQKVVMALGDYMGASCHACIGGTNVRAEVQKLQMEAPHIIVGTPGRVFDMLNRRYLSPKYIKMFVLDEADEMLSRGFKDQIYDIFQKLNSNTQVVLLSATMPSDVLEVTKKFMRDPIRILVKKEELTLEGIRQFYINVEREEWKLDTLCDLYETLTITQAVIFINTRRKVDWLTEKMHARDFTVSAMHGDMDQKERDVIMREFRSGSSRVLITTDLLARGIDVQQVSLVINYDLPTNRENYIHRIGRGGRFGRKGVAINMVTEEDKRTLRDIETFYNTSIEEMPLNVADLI
Technique: RNA Bind-n-Seq
Molecule type: RNA
Matrix: in vitro
Tested at: not given
Setting: 4-mer, random 30-nt RNA, single round
With: RocA, ADP, phosphate
Relative to: input library
Direction: higher = stronger binding
Strand	4-mer enrichment
AAGG	1.35 fold
AGUU	1.68 fold
CCCC	0.67 fold
GAUU	0.986 fold
GGUC	0.736 fold
CCAU	0.615 fold
UUAU	0.917 fold
ACCG	0.688 fold
CAAA	0.864 fold
GAUG	1.09 fold
GGGU	1.09 fold
AUAG	1.08 fold
GUGC	0.845 fold
UCUC	0.455 fold
UACU	0.618 fold
GGGA	1.89 fold

Study 2
Target: RNA binding protein fox-1 homolog 2, RRM domain, GST-SBP tag (RBFOX2, Homo sapiens, UniProt O43251-10, residues 100-194)
Technique: RNA Bind-n-Seq
Molecule type: RNA
Matrix: in vitro
Tested at: 365 nM
Setting: natural RNA segment, single round, ends assumed
Relative to: no-protein control
Direction: higher = stronger binding
Residues (chain): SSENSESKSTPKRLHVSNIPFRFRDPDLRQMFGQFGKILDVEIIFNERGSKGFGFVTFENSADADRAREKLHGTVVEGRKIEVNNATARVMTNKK
Strand	RBNS enrichment (R)
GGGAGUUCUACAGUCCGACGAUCACCUCUUUAAAAACUCACUUACGUUUGUCCUUUUUCACUUUGAAAAGUUGGAAGGAUCUGCUGAGGCCCAGUGCAUAUGCAAUGUAUAGUGUCUAUUAUCACAUUAAUCUUGGAAUUCUCGGGUGCCAA	0.363
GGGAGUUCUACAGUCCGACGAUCAGCAUCCUUUGGAGCAGGUCAACCUGAGGCUCCUUUGGCUUACAUCUAAGUUGUCCAGGUGCUCAGCUCCUGUGUGCCUGGAUGAUGAGAGGGCUCUAGGGCUCUUUCAGUGGAAUUCUCGGGUGCCAA	0.165
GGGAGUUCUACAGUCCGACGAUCUGCCCUGCAAAUUUGUUUCCCUUAAGGAACCCUCACCAACUAUCUCUGCUGGAUUUGGGAGUUCCGCAUCUUUUGUGGAGGGCAGAGUAUGGACAUCUUACACCCGGUGGUGGAAUUCUCGGGUGCCAA	0.402
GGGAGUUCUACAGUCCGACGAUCCAUUCCCAGGAGGAAAAGGUGGCAGAGAGGGCAGUACUGAGUAUGUCAGAAGAGCCCUCCUGGUUUUUUAGCGAUUUGAACCCACUAGACAAUGUGUGCACAUAGGGAAUUGGAAUUCUCGGGUGCCAA	0.487
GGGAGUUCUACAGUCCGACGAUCGUAUUCUUACUGUUUUUUUAAAAUAACUUUUUGCCUUAAUAGCUCAUUGUCACUAAUAACUUCUGUGUUCUCCCAGGCAGUGUUAUAACAGAAGGGCAAUGAAAACAUUGUGGAAUUCUCGGGUGCCAA	0.447
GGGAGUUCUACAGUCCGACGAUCACAAACACAUUGGCCUCAAGGCUCCUUAGAAUCCCAGUUCCAGCUUCCUAAAAUAGACAGUGGGUAUCGGGCAGCAGUCACUGGGGCUCAAGGGCAGUGAGCAAGAGAAAUGGAAUUCUCGGGUGCCAA	0.734
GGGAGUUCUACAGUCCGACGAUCGACCUGUUGCUGCAUAGAACUCUCCCUGCCCUACCCCUUAACUCCACCUUAGUGCCAGGGCCGAGGGCUGGUCUGCAUGCUGGAAGAGGUUGAGAGUUUUGGAAUUGAUUUGGAAUUCUCGGGUGCCAA	58.7
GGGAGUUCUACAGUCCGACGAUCAAGGGCUCAGGAAGUUGCUCCAAGAACAGUAGCUGAUGAAGCUGCCCAGAAGUGCCUUGGCUCCAGCCCUGUACCCCUUGGUACUGCCUCUGAACACUCUGGUUUCCCCAUGGAAUUCUCGGGUGCCAA	0.27

Study 3
Target: CCNE1, cyclin fold, Cln2 fusion (human)
Technique: yeast growth competition, sequencing
Matrix: yeast
Setting: weak parent motif
Relative to: not given
Direction: higher = stronger binding
Starting sequence: PKN2 docking peptide (human); VSAVQKLDFSDTM
Variant	normalised enrichment score
VSAVQVLDFSDTM [K6V]	0.846
VSAKQKLDFSDTM [V4K]	0.0379
VSAVQKLDFPDTM [S10P]	0.474
VSAVQKWDFSDTM [L7W]	0.3
VSAVQKNDFSDTM [L7N]	0.0174
VMAVQKLDFSDTM [S2M]	0.923
VSAVQKLDFQDTM [S10Q]	-0.289
VSAVQKLDASDTM [F9A]	0.168
VTAVQKLDFSDTM [S2T]	0.807
VSALQKLDFSDTM [V4L]	0.226
VSAVQKLDFSHTM [D11H]	0.563
VSAVQILDFSDTM [K6I]	0.466
VSAHQKLDFSDTM [V4H]	-0.0124
VSAVQKLDFSDQM [T12Q]	0.559
VSAVQKLDSSDTM [F9S]	0.179
VSAVAKADFSDTM [Q5A L7A]	0.17
VSAVQKLDFWDTM [S10W]	0.531
VSAVQYLDFSDTM [K6Y]	0.0803
VSHVQKLDFSDTM [A3H]	0.38
VSAVQKLDFVDTM [S10V]	0.823
VQAVQKLDFSDTM [S2Q]	0.608
VSAVQKLTFSDTM [D8T]	0.37
VSAVQKLNFSDTM [D8N]	0.395

Study 4
Target: UBE2G1 UBC core domain (UniProt P62253)
Technique: yeast two-hybrid
Matrix: yeast
Setting: mostly zero background
Relative to: not given
Direction: higher = stronger interaction
B1: PRKN RING domain (UniProt O60260); chain LIATNSRNITCITCTDVRSPVLVFQCNSRHVICLDCFHLYCVTRLNDRQFVHDPQLGYSLPCVAGCPNSLIKELHH
B2: ZNRF3 RING domain (UniProt Q9ULT6); chain DTLSSSSTSDCAICLEKYIDGEELRVIPCTHRFHRKCVDPWLLQHHTCPHCRHNIIEQKGNP
B3: DTX1 RING domain (UniProt Q86Y01); chain QKVKNPPDEDCTICMERLVTASGYEGVLRHKGVRPELVGRLGRCGHMYHLLCLVAMYSNGNKDGSLQCPTCKAIYGEKTGTQ
B4: TRIM48 RING domain (UniProt Q8IWZ4); chain ISQVFQRELTCPICMNYFIDPVTIDCGHSFCRPCFYLNWQDIPILTQCFECIKTIQQRNLKT
Target sequence (chain): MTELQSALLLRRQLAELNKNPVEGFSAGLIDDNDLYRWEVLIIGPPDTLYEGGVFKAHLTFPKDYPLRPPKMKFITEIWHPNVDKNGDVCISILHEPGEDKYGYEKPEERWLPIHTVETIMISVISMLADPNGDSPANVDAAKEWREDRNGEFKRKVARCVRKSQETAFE
Molecule	lacZ reporter activity
B1 (PRKN RING domain)	0
ALDRLEKLLRCSRCTNILREPVCLGGCEHIFCSNCVSDCIGTGCPVCYTPAWIQDLKI (BARD1 RING domain (UniProt Q99728))	0
KITELNPHLMCVLCGGYFIDATTIIECLHSFCKTCIVRYLETSKYCPICDVQVHKTRPLL (BMI1 RING domain (UniProt P35226))	0
B2 (ZNRF3 RING domain)	0
B3 (DTX1 RING domain)	0
QLRRLQEERTCKVCLDRAVSIVFVPCGHLVCAECAPGLQLCPICRAPVRSRVRTF (BIRC7 RING domain (UniProt Q96CA5))	0
B4 (TRIM48 RING domain)	0

A few entries again (study 4):
Molecule	lacZ reporter activity
B4 (TRIM48 RING domain)	0
B1 (PRKN RING domain)	0
KITELNPHLMCVLCGGYFIDATTIIECLHSFCKTCIVRYLETSKYCPICDVQVHKTRPLL (BMI1 RING domain (UniProt P35226))	0
B3 (DTX1 RING domain)	0
ALDRLEKLLRCSRCTNILREPVCLGGCEHIFCSNCVSDCIGTGCPVCYTPAWIQDLKI (BARD1 RING domain (UniProt Q99728))	0
QLRRLQEERTCKVCLDRAVSIVFVPCGHLVCAECAPGLQLCPICRAPVRSRVRTF (BIRC7 RING domain (UniProt Q96CA5))	0
B2 (ZNRF3 RING domain)	0
